{"data": "Measurements pooled from the literature", "route": "oral"}
{"SMILES": "CCn1c(=O)c(-c2cc(NC(=O)Nc3ccccc3)c(F)cc2Br)cc2cnc(NC)cc21", "test": "refers to: amylase increased", "test system": "healthy human, matched to severe hepatic impairment", "conditions": "50 mg single dose", "endpoint": "participants with grade ≥ 3 TEAE", "value": "0%"}
{"SMILES": "COC(=O)N[C@H](C(=O)N1CCC[C@H]1c1ncc(-c2cc(F)c3c(c2)O[C@@H](c2cnc(C4CC4)s2)n2c-3cc3cc(-c4cnc([C@@H]5CCCN5C(=O)[C@@H](NC(=O)OC)C(C)C)[nH]4)ccc32)[nH]1)C(C)C", "test system": "healthy adult humans", "conditions": "180 mg, 6 days", "endpoint": "participants with Dizziness", "value": "6.3%"}
{"SMILES": "CN1C(=O)[C@@H](NC(=O)c2nnc(Cc3ccccc3)[nH]2)COc2cccnc21", "test": "phase I single ascending dose", "test system": "human, male and female", "conditions": "100 mg, fasted", "endpoint": "participants with any serious TEAE", "value": "0%"}
{"SMILES": "CCCS(=O)(=O)N[C@H]1C[C@@H](N(C)c2ncnc3[nH]ccc23)C1", "test system": "healthy human", "conditions": "dose not given, with: dabigatran etexilate", "endpoint": "participants with TEAEs", "value": "25%"}
{"SMILES": "COC(=O)N[C@@H](C)CNc1nccc(-c2cn(C(C)C)nc2-c2cc(Cl)cc(NS(C)(=O)=O)c2F)n1", "test system": "human", "conditions": "dose not given, alone or with diltiazem or posaconazole", "endpoint": "participants with TEAEs", "value": "88%"}
{"SMILES": "COCCCOc1ccnc(C[S+]([O-])c2nc3ccccc3[nH]2)c1C (stereo not shown)", "test system": "healthy male humans", "conditions": "dose not given", "endpoint": "participants with adverse events", "value": "18.2%"}
{"SMILES": "C[C@H]1CN(C(=O)CC#N)[C@]12CCN(c1ncnc3[nH]ccc13)C2", "test system": "human", "conditions": "1.5 mg single dose", "endpoint": "participants withdrawn due to AEs", "value": "0%"}
{"SMILES": "CC[C@@H]([C@H](C)O)n1ncn(-c2ccc(N3CCN(c4ccc(OC[C@@H]5CO[C@@](Cn6cncn6)(c6ccc(F)cc6F)C5)cc4)CC3)cc2)c1=O", "test system": "human", "conditions": "dose not given", "endpoint": "participants with adverse events", "value": "25%"}
{"SMILES": "Cc1ccc(=O)n(-c2ccccc2)c1", "test system": "human", "conditions": "single dose", "endpoint": "participants with TEAEs", "value": "20.8%"}
{"SMILES": "CC(C)c1nc(N(C)S(C)(=O)=O)nc(-c2ccc(F)cc2)c1/C=C/[C@@H](O)C[C@@H](O)CC(=O)O", "test system": "human", "conditions": "10 mg, alone", "endpoint": "participants with dizziness", "value": "0%"}
{"SMILES": "C=CC(=O)NC1CCN(c2ncc3ncnc(Nc4ccc(Oc5ccc6c(c5)ncn6C)c(C)c4)c3n2)CC1", "test system": "healthy male humans", "conditions": "240 mg", "endpoint": "participants with skin lesion TEAE", "value": "6.3%"}
{"SMILES": "CC(C)c1nc(N(C)S(C)(=O)=O)nc(-c2ccc(F)cc2)c1/C=C/[C@@H](O)C[C@@H](O)CC(=O)O", "test": "refers to: Nausea", "test system": "human", "conditions": "10 mg", "endpoint": "participants with TEAE", "value": "0%"}
{"SMILES": "CCCCCCOC(=O)NC(=N)c1ccc(NCc2nc3cc(C(=O)N(CCC(=O)OCC)c4ccccn4)ccc3n2C)cc1", "test": "refers to: Wound", "test system": "human", "conditions": "75 mg, alone", "endpoint": "participants with adverse event", "value": "0%"}
{"SMILES": "CC(C)c1nc(CN(C)C(=O)N[C@@H](CCN2CCOCC2)C(=O)N[C@H](CC[C@H](Cc2ccccc2)NC(=O)OCc2cncs2)Cc2ccccc2)cs1", "test system": "human", "conditions": "dose not given", "endpoint": "participants with Insomnia", "value": "0%"}
{"SMILES": "C[C@H]1O[C@@H](O[C@H]2[C@@H](O)C[C@H](O[C@H]3[C@@H](O)C[C@H](O[C@H]4CC[C@@]5(C)[C@H](CC[C@@H]6[C@@H]5C[C@@H](O)[C@]5(C)[C@@H](C7=CC(=O)OC7)CC[C@]65O)C4)O[C@@H]3C)O[C@@H]2C)C[C@H](O)[C@@H]1O", "test": "refers to: Dizziness", "test system": "human", "conditions": "0.25 mg", "endpoint": "participants with TEAE", "value": "3.4%"}
{"SMILES": "O=C(COc1ccc(Cl)cc1)NC12CC(c3nnc([C@H]4C[C@@H](OC(F)(F)F)C4)o3)(C1)C2", "test system": "human both sexes", "conditions": "45 mg single dose", "endpoint": "participants with TEAE", "value": "33.3%"}
{"note": "Some of these lines once more:"}
{"SMILES": "CCCS(=O)(=O)N[C@H]1C[C@@H](N(C)c2ncnc3[nH]ccc23)C1", "test system": "healthy human", "conditions": "dose not given, with: dabigatran etexilate", "endpoint": "participants with TEAEs", "value": "25%"}
{"SMILES": "COC(=O)N[C@@H](C)CNc1nccc(-c2cn(C(C)C)nc2-c2cc(Cl)cc(NS(C)(=O)=O)c2F)n1", "test system": "human", "conditions": "dose not given, alone or with diltiazem or posaconazole", "endpoint": "participants with TEAEs", "value": "88%"}
{"SMILES": "COCCCOc1ccnc(C[S+]([O-])c2nc3ccccc3[nH]2)c1C (stereo not shown)", "test system": "healthy male humans", "conditions": "dose not given", "endpoint": "participants with adverse events", "value": "18.2%"}
